Measurements collected from several papers.
Lines come from different studies, so protocols differ. ± gives the spread as reported.
ESR2: Estrogen receptor beta (ESR2, Homo sapiens, UniProt Q92731)
Chain of UniProt Q92731 (whole entry, looked up): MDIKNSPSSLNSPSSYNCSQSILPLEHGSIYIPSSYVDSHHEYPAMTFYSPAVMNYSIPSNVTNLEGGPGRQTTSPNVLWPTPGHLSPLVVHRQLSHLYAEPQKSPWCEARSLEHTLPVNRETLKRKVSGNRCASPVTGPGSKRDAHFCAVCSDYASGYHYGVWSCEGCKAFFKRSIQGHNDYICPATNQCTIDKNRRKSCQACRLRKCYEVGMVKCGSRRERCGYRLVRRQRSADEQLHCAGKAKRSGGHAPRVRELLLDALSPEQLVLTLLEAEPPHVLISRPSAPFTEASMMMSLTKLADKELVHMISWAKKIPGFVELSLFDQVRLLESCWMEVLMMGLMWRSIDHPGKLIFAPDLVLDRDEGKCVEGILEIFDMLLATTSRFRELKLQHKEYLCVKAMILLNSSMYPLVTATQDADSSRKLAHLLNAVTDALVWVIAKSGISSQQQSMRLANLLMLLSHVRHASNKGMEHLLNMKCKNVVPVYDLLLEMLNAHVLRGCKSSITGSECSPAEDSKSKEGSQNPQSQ
ADORA1: Adenosine receptor A1 (ADORA1, Homo sapiens, UniProt P30542)
Chain of UniProt P30542 (whole entry, looked up): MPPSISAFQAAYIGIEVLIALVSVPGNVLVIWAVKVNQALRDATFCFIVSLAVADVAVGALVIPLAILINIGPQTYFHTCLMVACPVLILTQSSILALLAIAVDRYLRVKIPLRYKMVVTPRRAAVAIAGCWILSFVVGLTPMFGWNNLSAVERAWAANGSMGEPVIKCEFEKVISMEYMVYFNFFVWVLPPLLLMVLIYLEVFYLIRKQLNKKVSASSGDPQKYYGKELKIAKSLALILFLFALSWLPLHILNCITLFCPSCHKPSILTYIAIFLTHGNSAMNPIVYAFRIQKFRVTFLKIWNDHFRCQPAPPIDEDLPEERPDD
CHRM3: Muscarinic acetylcholine receptor M3 (CHRM3, Homo sapiens, UniProt P20309)
Chain of UniProt P20309 (whole entry, looked up): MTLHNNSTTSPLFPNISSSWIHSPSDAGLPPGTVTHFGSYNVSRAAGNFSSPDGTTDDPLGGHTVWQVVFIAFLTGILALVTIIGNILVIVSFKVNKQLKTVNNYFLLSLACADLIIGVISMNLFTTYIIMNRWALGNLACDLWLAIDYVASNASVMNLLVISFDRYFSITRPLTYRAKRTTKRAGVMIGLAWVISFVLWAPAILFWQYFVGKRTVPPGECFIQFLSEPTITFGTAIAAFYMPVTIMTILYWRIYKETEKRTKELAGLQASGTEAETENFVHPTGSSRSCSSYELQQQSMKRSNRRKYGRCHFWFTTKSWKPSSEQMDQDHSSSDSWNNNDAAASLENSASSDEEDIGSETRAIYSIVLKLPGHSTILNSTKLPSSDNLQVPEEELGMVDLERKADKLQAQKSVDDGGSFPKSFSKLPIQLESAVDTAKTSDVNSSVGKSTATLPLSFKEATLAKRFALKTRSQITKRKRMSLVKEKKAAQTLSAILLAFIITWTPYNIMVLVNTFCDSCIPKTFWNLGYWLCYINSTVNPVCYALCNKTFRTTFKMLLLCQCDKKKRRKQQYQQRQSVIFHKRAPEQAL
C3AR1: C3a anaphylatoxin chemotactic receptor (C3AR1, Homo sapiens, UniProt Q16581)
Chain of UniProt P41968 (whole entry, unmodified, looked up): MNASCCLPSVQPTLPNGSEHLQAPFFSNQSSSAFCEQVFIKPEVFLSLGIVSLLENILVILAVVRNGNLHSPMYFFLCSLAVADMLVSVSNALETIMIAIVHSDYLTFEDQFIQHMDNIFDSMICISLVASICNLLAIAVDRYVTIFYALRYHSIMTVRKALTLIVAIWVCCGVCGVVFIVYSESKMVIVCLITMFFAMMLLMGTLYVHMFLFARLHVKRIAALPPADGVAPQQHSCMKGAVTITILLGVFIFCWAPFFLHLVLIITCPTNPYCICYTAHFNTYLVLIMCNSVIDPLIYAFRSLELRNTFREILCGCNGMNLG
Chain of UniProt Q16581 (whole entry, looked up): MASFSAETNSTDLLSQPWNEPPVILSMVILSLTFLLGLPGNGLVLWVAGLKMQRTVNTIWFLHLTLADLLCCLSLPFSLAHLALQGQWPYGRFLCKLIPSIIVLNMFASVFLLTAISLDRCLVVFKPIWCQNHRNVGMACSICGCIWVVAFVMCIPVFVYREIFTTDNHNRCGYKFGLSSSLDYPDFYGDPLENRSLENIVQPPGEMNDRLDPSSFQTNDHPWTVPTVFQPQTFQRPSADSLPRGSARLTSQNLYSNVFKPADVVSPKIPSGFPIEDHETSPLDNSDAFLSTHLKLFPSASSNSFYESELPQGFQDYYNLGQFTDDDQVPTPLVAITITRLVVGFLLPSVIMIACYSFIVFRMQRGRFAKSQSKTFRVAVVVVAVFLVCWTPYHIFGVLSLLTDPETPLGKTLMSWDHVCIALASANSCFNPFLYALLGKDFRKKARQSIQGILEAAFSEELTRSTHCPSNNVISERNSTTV
Chain of UniProt O14764 (whole entry, looked up): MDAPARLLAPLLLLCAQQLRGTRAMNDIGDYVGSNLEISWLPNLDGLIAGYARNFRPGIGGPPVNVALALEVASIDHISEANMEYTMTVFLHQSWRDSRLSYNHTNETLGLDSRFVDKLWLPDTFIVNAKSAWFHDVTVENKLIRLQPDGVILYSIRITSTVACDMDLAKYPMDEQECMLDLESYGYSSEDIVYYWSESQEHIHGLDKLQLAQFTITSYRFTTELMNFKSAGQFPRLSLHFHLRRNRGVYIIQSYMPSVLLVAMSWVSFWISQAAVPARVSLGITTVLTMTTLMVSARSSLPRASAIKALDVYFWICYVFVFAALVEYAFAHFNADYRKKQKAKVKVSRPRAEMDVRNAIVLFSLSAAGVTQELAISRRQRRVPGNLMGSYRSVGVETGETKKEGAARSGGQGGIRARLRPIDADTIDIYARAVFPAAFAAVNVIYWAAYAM
Chain of UniProt P03372 (whole entry, looked up): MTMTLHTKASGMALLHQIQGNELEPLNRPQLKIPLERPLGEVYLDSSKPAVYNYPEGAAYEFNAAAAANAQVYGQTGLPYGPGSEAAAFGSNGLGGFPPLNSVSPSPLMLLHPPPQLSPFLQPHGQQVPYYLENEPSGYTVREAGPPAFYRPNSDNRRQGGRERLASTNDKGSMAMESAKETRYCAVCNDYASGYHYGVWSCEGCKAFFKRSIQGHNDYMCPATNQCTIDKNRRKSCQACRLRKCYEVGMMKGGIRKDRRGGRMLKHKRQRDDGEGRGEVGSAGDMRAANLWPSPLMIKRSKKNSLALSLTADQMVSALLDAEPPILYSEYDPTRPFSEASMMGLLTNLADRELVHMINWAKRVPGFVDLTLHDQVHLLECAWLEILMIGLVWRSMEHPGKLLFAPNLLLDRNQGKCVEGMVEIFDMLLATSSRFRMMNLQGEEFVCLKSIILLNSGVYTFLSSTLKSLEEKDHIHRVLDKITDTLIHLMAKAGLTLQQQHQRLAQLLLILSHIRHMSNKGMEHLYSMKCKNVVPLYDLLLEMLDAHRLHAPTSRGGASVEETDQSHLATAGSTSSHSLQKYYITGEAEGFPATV
Chain of UniProt O60894 (whole entry, looked up): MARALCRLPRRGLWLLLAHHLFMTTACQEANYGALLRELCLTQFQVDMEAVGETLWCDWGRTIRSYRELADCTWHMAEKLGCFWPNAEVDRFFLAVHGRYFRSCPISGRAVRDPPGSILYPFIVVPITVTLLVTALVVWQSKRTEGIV
Chain of UniProt Q16602 (whole entry, looked up): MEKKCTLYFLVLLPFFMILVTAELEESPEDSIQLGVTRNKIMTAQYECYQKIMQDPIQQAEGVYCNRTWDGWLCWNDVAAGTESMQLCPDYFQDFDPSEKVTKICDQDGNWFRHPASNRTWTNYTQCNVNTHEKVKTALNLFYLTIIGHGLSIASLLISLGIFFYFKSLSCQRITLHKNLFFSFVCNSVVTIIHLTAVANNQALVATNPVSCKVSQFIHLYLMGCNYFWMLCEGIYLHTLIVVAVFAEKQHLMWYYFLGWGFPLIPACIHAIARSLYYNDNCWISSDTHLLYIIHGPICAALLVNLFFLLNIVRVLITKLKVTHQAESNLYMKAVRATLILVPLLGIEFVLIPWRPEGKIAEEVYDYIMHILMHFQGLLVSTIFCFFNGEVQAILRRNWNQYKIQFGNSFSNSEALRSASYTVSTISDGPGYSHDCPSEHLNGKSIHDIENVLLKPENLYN
Chain of UniProt Q8BZP8 (whole entry, looked up): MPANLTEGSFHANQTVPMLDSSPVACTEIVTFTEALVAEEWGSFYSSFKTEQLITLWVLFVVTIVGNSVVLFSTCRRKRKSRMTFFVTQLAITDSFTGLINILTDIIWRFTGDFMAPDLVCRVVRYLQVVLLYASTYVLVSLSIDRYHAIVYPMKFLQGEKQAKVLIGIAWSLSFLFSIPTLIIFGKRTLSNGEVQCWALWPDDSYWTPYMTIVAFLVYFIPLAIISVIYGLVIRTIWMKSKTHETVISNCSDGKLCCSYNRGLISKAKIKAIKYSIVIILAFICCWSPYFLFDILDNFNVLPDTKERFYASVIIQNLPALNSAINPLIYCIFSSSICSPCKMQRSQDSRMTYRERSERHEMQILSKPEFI
Chain of UniProt Q16445 (whole entry, looked up): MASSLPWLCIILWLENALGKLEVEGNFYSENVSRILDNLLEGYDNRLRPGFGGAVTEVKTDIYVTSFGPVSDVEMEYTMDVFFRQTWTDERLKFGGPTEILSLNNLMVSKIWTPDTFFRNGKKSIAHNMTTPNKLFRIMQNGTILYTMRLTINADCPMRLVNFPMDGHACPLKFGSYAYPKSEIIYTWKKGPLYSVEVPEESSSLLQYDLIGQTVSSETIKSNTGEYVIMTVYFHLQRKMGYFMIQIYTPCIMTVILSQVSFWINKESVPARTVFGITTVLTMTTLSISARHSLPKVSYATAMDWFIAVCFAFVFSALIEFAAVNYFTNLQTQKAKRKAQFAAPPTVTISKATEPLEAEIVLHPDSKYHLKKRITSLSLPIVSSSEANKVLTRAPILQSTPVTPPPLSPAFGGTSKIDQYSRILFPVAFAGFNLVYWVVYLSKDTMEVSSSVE

Compound | tested on | assay | system | setting | how to read | measurement | value
N#CC(=CC(=O)c1ccccc1)c1ccc(O)cc1 | ESR2 | coactivator recruitment, agonist | – | – | – | EC50 | 2970 nM
N=C(N)NCCC[C@H](NC(=O)[C@H](CC(=O)O)NC(=O)[C@@H]1CSCCC(=O)NCC(=O)N[C@@H](Cc2c[nH]cn2)C(=O)N[C@H](Cc2ccccc2)C(=O)N[C@@H](CCCNC(=N)N)C(=O)N[C@@H](Cc2c[nH]c3ccccc23)C(=O)N1)C(=O)N[C@@H](Cc1ccccc1)C(=O)NCC(N)=O | MC3R (Homo sapiens, UniProt P41968) | cAMP, agonist | – | – | – | EC50 | 170 nM
COc1cc(-c2cnc3nc2NCCCNS(=O)(=O)c2cccc(c2)N3)ccc1F | FLT1 (Homo sapiens, UniProt P17948) | target engagement in cells, BRET | – | – | – | EC50 | 13000 nM
O=Cc1c(O)ccc2ccccc12 | HUVEC | RNA sequencing, refers to: TCF19 | – | 75 µM, 24 h | relative to: DMSO | log2 fold change | -2.89
N#Cc1c(N)nc(SCc2ncc[nH]2)c(C#N)c1-c1ccc(O)cc1 | ADORA2A (Homo sapiens, UniProt P29274) | – | – | – | – | EC50 | 10 nM
CCNC(=O)[C@H]1O[C@@H](n2cnc3c(NCCOCCOCCNC(=O)CCCCCNC(=O)COc4ccc(/C=C/C5=[N+]6C(=Cc7ccc(-c8cccs8)n7[B-]6(F)F)C=C5)cc4)ncnc32)[C@H](O)[C@@H]1O | ADORA1 | CRE-SPAP reporter gene, agonist | CHO-A1 | Gs enhancement, with: forskolin, pertussis toxin 100 ng/mL overnight | – | EC50 | 1070 nM
CCCCOc1ccc(C(=O)OCCN2CC=CCC2)cc1 | CHRM3 | inositol phosphate accumulation, antagonist, Schild analysis | CHO | with: carbachol | – | Kb | 29.5 µM
N=C(N)NCCC[C@H](NC(=O)[C@H](Cc1ccccc1)NC(=O)[C@@H](N)CO)C(=O)N[C@@H](CC(N)=O)C(N)=O | Neuropeptide S receptor (Mus musculus, UniProt Q8BZP8) | cAMP, agonist, TR-FRET | – | – | – | EC50 | 800 nM
CCCC[C@H](NC(=O)COCCOCCNC(=O)CN1CCN(CC(=O)O)CCN(CC(=O)O)CC1)C(=O)N[C@H]1CC(=O)NCCCC[C@@H](C(N)=O)NC(=O)[C@H](Cc2c[nH]c3ccccc23)NC(=O)[C@H](CCCNC(=N)N)NC(=O)[C@@H](Cc2ccccc2)NC(=O)[C@H](Cc2c[nH]cn2)NC1=O [copper-64 labelled] | – | – | C57 mice, heart | intravenous, 0.37 MBq, 4 h | – | tissue uptake | 0.18 ± 0.06 %ID/g
CCC(=O)NCc1cc(C(=O)NCCN2CCN(CCCCC3CCN(CC(=O)N4c5ccccc5NC(=O)c5ccccc54)CC3)CC2)cc(C(=O)NCCN2CCN(CCOC(=O)C3c4ccccc4Oc4ccccc43)CC2)c1 | CHRM3 | ligand displacement, radioligand | – | – | – | Ki | 19.1 nM
C=CCc1cccc(-c2cc(/C=C/C(=O)O)ccc2O)c1 | Retinoic acid receptor RXR-alpha, with NURR1 (RXRA, Homo sapiens, UniProt P19793) | – | – | – | – | EC50 | 2.51 nM
CC/C(=C(\c1ccccc1)c1ccc(OCCN(C)CCCCC(=O)NCCc2c[nH]c3ccc(OC)cc23)cc1)c1ccccc1 | MTNR1A (Homo sapiens, UniProt P48039) | β-arrestin recruitment, agonist, BRET | – | – | – | EC50 | 9770 nM
CN(Cc1ccccc1F)C(=O)c1ccc(O)cc1 | ESR2 | coactivator recruitment, agonist | – | – | – | EC50 | 19300 nM
[64Cu+2].c1cnc(CNCc2ccc(CN3CCCN4CCNCCCN(CC4)CC3)cc2)nc1 | CXCR4 | – | NOD/SCID mouse, U87 xenografts, U87 tumour | 90 min | – | tissue uptake | 2.57 ± 0.44 %ID/g
CCCn1c(=O)c2[nH]c(-c3ccc(OCC(=O)NCCNC(=O)CCCCCNC(=O)CCCCCNS(=O)(=O)c4cccc5c(N(C)C)cccc45)cc3)nc2n(CCC)c1=O | ADORA1 | reporter gene, agonist | – | – | – | EC50 | 158 nM
CSCC[C@H](NC(=O)[C@H](CC(C)C)NC(=O)[C@H](CCC(N)=O)NC(=O)[C@H](Cc1c[nH]c2ccccc12)NC(=O)[C@H](CC(C)C)NC(=O)[C@H](CCCCN)NC(=O)[C@H](Cc1c[nH]cn1)NC(=O)[C@H](CO)NC(=O)[C@H](CC(C)C)NC(=O)[C@H](CC(N)=O)NC(=O)[C@H](CCC(N)=O)NC(=O)[C@@H](NC(=O)[C@H](CCC(N)=O)NC(=O)[C@@H]1CSSC[C@H](NC(=O)CNC(=O)[C@@H](N)C(C)C)C(=O)N[C@@H](C(C)C)C(=O)N[C@@H](CC(C)C)C(=O)NCC(=O)N[C@@H]([C@@H](C)O)C(=O)N1)C(C)C)C(=O)NCC(=O)N1CCC[C@H]1C(=O)N[C@@H](C)C(=O)NCC(=O)N[C@@H](CCCCN)C(=O)N[C@@H](CCC(N)=O)C(=O)N[C@@H](CC(=O)O)C(=O)N[C@@H](CO)C(=O)N[C@@H](C)C(=O)N1CCC[C@H]1C(=O)N[C@H](C(=O)N[C@@H](CC(=O)O)C(=O)N1CCC[C@H]1C(=O)N[C@@H](CO)C(=O)N[C@@H](CO)C(=O)N1CCC[C@H]1C(=O)N[C@@H](Cc1c[nH]cn1)C(=O)N[C@@H](CO)C(=O)N[C@@H](Cc1ccc(O)cc1)C(N)=O)C(C)C | Calcitonin-gene-related peptide receptor, CALCRL/RAMP1 (Homo sapiens, UniProt O60894+Q16602) | cAMP, agonist, CAMYEL BRET | COS-7 | 37 °C | – | EC50 | 6.03 nM
CC(C)C[C@@H]1NC(=O)[C@H](CCCNC(=N)N)NC(=O)[C@H](C(C)C)NC(=O)[C@H](Cc2c[nH]cn2)NC(=O)[C@H](Cc2c[nH]cn2)NC(=O)CNC(=O)[C@H](CCCCN)NC(=O)[C@H](CC(C)C)NC(=O)[C@H](CC(N)=O)NC(=O)[C@H]([C@@H](C)O)NC(=O)[C@H](CO)NC(=O)[C@H](CC(N)=O)NC(=O)[C@@H]2CCCN2C(=O)[C@H](CO)NC(=O)[C@@H]2CCCN2C(=O)[C@H](C(C)C)NC(=O)[C@H](CCCNC(=N)N)NC(=O)[C@H](Cc2c[nH]cn2)NC(=O)[C@@H]2CSSC[C@H](NC1=O)C(=O)N[C@@H](CCCCN)C(=O)N1CCC[C@H]1C(=O)N[C@H](C(=O)N[C@@H](CCCCN)C(=O)N[C@@H](CC(C)C)C(=O)N[C@@H](CCC(=O)O)C(=O)N1CCC[C@H]1C(=O)N[C@@H](CCC(=O)O)C(=O)N1CCC[C@H]1C(=O)N[C@@H](CCCNC(=N)N)C(=O)N[C@@H](CC(C)C)C(=O)N[C@@H](Cc1c[nH]c3ccccc13)C(=O)N[C@H](C(=O)N[C@H](C(=O)N1CCC[C@H]1C(=O)NCC(=O)N[C@@H](C)C(=O)N[C@@H](CC(C)C)C(=O)N1CCC[C@H]1C(=O)N[C@@H](CCC(N)=O)C(=O)N[C@H](C(=O)O)C(C)C)C(C)C)C(C)C)CSSC[C@H](NC(=O)[C@H](CC(C)C)NC(=O)[C@H](CCCNC(=N)N)NC(=O)[C@@H](NC(=O)[C@H](CCCNC(=N)N)NC(=O)[C@H](CCCNC(=N)N)NC(=O)CNC(=O)[C@H](CO)NC(=O)[C@H](Cc1c[nH]c3ccccc13)NC(=O)[C@H](C)NC(=O)[C@H](CCCCN)NC(=O)[C@H](C)NC(=O)[C@@H]1CCCN1C(=O)[C@H](CCCNC(=N)N)NC(=O)[C@H](CCCNC(=N)N)NC(=O)[C@@H](N)CCCCN)[C@@H](C)O)C(=O)N2 | G-protein coupled receptor 15, with Gi/o (Homo sapiens, UniProt P49685) | cAMP inhibition, agonist, HTRF | HEK293A stably expressing GPR15 | with: forskolin | – | EC50 | 11 nM
CC(C)C[C@H](NC(=O)CNC(=O)[C@H](CC(C)C)NC(=O)[C@H](CCCCN)NC(=O)[C@H](CO)NC(=O)[C@H](C)NC(=O)[C@H](CCCN=C(N)N)NC(=O)[C@H](Cc1ccc(O)cc1)NC(=O)[C@H](CCCCN)NC(=O)[C@H](CCCCN)NC(=O)CNC(=O)[C@H](Cc1c[nH]c2ccccc12)NC(=O)[C@@H](N)Cc1c[nH]c2ccccc12)C(=O)N[C@@H](C)C(=O)N[C@@H](CCCN=C(N)N)C(=O)O | C3AR1 | receptor internalization, agonist, ELISA surface expression | HEK293T, β-arrestin2, GRK2 co-expressed | 60 min, 37 °C | – | EC50 | 46 nM
CC[C@H]1[C@@H](O)[C@@H]2[C@H](CC[C@]3(C)[C@@H]([C@H](C)CCOS(=O)(=O)[O-])CC[C@@H]23)[C@@]2(C)CC[C@@H](O)C[C@@H]12.[Na+] | – | EchoMRI | ob/ob NASH mouse model | oral, 3 mg/kg once daily, before treatment, baseline of 8 week study | – | whole-body fat mass | 18.5 ± 0.7 g
CC(C)C[C@H](NC(=O)[C@H](C)NC(=O)[C@H](CO)NC(=O)[C@@H]1CCCN1C(=O)[C@@H]1CCCN1C(=O)[C@H](CCC(N)=O)NC(=O)[C@H](CC(C)C)NC(=O)[C@@H](N)[C@@H](C)O)C(=O)N[C@@H](CCCNC(=N)N)C(=O)N[C@@H](CCCNC(=N)N)C(=O)N[C@@H](CCCNC(=N)N)C(=O)N[C@@H](Cc1c[nH]cn1)C(=O)N[C@@H](Cc1ccc(O)cc1)C(=O)N[C@@H](Cc1c[nH]cn1)C(=O)N[C@@H](Cc1c[nH]cn1)C(=O)N[C@@H](C)C(=O)N[C@@H](CC(C)C)C(=O)N1CCC[C@H]1C(=O)N1CCC[C@H]1C(=O)N[C@@H](CO)C(=O)N[C@@H](CCCNC(=N)N)C(=O)O | C3AR1 | cAMP, agonist, luciferase | – | – | – | EC50 | 107 nM
CCCCOc1ccc(C(=O)OCC[N+]2(C)CC=CCC2)cc1 (stereo not drawn) | CHRM3 | inositol phosphate accumulation, antagonist, Schild analysis | CHO | with: carbachol | – | Kb | 3.16 µM
O=S(=O)(Oc1cccc(F)c1)C1CC2OC1C(c1ccc(O)cc1)=C2c1ccc(O)cc1 (racemic) | Estrogen receptor (ESR1, Homo sapiens, UniProt P03372) | reporter gene, agonist, luciferase | – | – | – | EC50 | 140 nM
CCCC[C@H](NC(=O)[C@H](CO)NC(=O)[C@H](Cc1ccc(O)cc1)NC(=O)[C@H](CO)NC(C)=O)C(=O)N[C@@H](CCC(=O)O)C(=O)N[C@@H](Cc1c[nH]cn1)C(=O)N[C@H](Cc1ccc2ccccc2c1)C(=O)N[C@@H](CCCNC(=N)N)C(=O)N[C@@H](Cc1c[nH]c2ccccc12)C(=O)NCC(=O)N[C@@H](CCCCN)C(=O)N1CCC[C@H]1C(=O)N[C@H](C(=O)NCC(=O)N[C@@H](CCCCN)C(=O)N[C@@H](CCCCN)C(=O)N[C@@H](CCCNC(=N)N)C(N)=O)C(C)C | MC3R (Homo sapiens, UniProt P41968, L128M) | cAMP production, agonist | – | mutant receptor | – | EC50 | 78 ± 14 nM
O=C(Nc1c(-c2cccs2)nc2ccccn12)c1ccc(Cl)cc1 | Gamma-aminobutyric acid receptor subunit delta/Gamma-aminobutyric acid receptor subunit beta-2/Gamma-aminobutyric acid receptor subunit alpha-6 (Homo sapiens, UniProt O14764+P47870+Q16445) | positive allosteric modulator, FLIPR membrane potential | cells expressing α6β2δ GABA-A receptor | – | – | EC50 | 2020 nM

Some of these lines once more:
Compound | tested on | assay | system | setting | how to read | measurement | value
N#Cc1c(N)nc(SCc2ncc[nH]2)c(C#N)c1-c1ccc(O)cc1 | ADORA2A (Homo sapiens, UniProt P29274) | – | – | – | – | EC50 | 10 nM
CCNC(=O)[C@H]1O[C@@H](n2cnc3c(NCCOCCOCCNC(=O)CCCCCNC(=O)COc4ccc(/C=C/C5=[N+]6C(=Cc7ccc(-c8cccs8)n7[B-]6(F)F)C=C5)cc4)ncnc32)[C@H](O)[C@@H]1O | ADORA1 | CRE-SPAP reporter gene, agonist | CHO-A1 | Gs enhancement, with: forskolin, pertussis toxin 100 ng/mL overnight | – | EC50 | 1070 nM
CCCCOc1ccc(C(=O)OCCN2CC=CCC2)cc1 | CHRM3 | inositol phosphate accumulation, antagonist, Schild analysis | CHO | with: carbachol | – | Kb | 29.5 µM
